Measured values from different studies.
Compare with care: the assays were run in different laboratories. “And” joins repeats or separate records; there may be more than shown. Numbers after ± are the reported error.

| SMILES | cell line | test | system | setting | how to read | measurement | value |
| --- | --- | --- | --- | --- | --- | --- | --- |
| C#CCNC(=O)c1ccc(S(=O)(=O)N[C@@H](CCCCNC(C)=S)C(=O)N[C@@H](CCCNC(=N)N)C(=O)N[C@@H](CC2CCCCC2)C(=O)N[C@H](CCCCN)C(=O)N[C@@H](CC2CCCCC2)C(=O)N[C@H](CCCNC(=N)N)C(=O)N[C@@H](CC2CCCCC2)C(N)=O)cc1 | Jurkat | cell growth or viability, MTT |  | 72 h |  | EC50 | 42.5 µM |
| CC(C)CC(O)(CC(C)C)c1cn(C(=O)N2CCCC2)nn1 | mouse T-cells | SILAC proteomics, refers to: Paip2b |  | 1 nM, 6 h, single peptides, unit not given | baseline: DMSO | protein level | 0.97 and 0.87 |
| CCOC(=O)C1(Cc2ccccc2)Oc2cc(F)ccc2N(Cc2ccccc2)C1=O (stereo not drawn) | HEK293T | cytotoxicity, CCK-8 |  | 50 µM, 72 h |  | inhibition | 0.28 ± 0.13% |
| CSCC[C@H](NC(=O)[C@@H](NC(=O)[C@H](CCC(N)=O)NC(=O)[C@H](CO)NC(=O)[C@@H](N)C(C)C)[C@@H](C)O)C(=O)N[C@@H](CCCNC(=N)N)C(=O)N[C@@H](CCC(N)=O)C(=O)N[C@H](C(=O)N[C@@H](C)C(=O)N[C@H](C(=O)N1CCC[C@H]1C(=O)N[C@@H](CC(C)C)C(=O)N[C@@H](CC(C)C)C(=O)N[C@@H](Cc1c[nH]c2ccccc12)C(=O)N[C@@H](Cc1ccccc1)C(=O)N[C@@H](Cc1c[nH]c2ccccc12)C(=O)N[C@H](C(=O)NCC(=O)N[C@@H](CO)C(=O)N[C@@H](CC(C)C)C(=O)NCCOCCOCCOCCOCCOCCOCCOCCOCCOCCOCCOCCOCCC(=O)N[C@@H](CS)C(N)=O)[C@@H](C)O)C(C)C)[C@@H](C)O | H1155 lung large cell carcinoma | cell binding, phage binding, refers to: output/input phage |  | 10 min, 37 °C | baseline: control phage | selectivity ratio | 3.3 ± 1.7 |
| COc1ccc2c(c1)c(CC(=O)[Se]CC(=O)Nc1cccc(C(F)(F)F)c1)c(C)n2C(=O)c1ccc(Cl)cc1 | NCI60 NSCLC subpanel | NCI60 five-dose screen |  |  |  | CC50 | 7.09 µM |
| Cc1cc(Oc2nc(N3CC[C@@H](c4ccncc4)C3)ncc2F)[nH]n1 | TE-671 | cell proliferation | muscle cancer |  |  | IC50 | 42.7 µM |
| CC(C)[C@H](NC(=O)[C@H](CCCNC(=N)N)NC(=O)[C@@H]1CCCN1C(=O)[C@@H](NC(=O)[C@H](C)NC(=O)[C@H](Cc1ccc(O)cc1)NC(=O)[C@H](CCC(N)=O)NC(=O)[C@H](CCCCN)NC(=O)[C@H](CCCNC(=N)N)NC(=O)[C@@H]1CCCN1C(=O)[C@H](CCC(=O)O)NC(=O)[C@@H](NC(=O)[C@H](C)N)[C@@H](C)O)[C@@H](C)O)C(=O)N[C@@H](Cc1ccccc1)C(=O)N[C@@H](Cc1c[nH]c2ccccc12)C(=O)N[C@H](C(=O)N[C@@H](CC(=O)O)C(=O)N[C@@H](C)C(=O)N1CCC[C@H]1C(=O)NCC(=O)NCCOCCOCCOCCOCCOCCOCCOCCOCCOCCOCCOCCOCCC(=O)N[C@@H](CS)C(N)=O)[C@@H](C)O | H1650 lung adenocarcinoma | cell binding, phage binding, refers to: output/input phage |  | 10 min, 37 °C | baseline: control phage | selectivity ratio | 0.34 ± 0.071 |
| O=C(C[Se]C(=O)c1ccccc1)Nc1cccc(C(F)(F)F)c1 | NCI60 renal subpanel | cell growth, inhibitor |  | five-dose |  | GI50 | 2.22 µM |
| Cc1cccc(-c2cccc(C)n2)n1.Cc1cccc(-c2cccc(C)n2)n1.F[P-](F)(F)(F)(F)F.F[P-](F)(F)(F)(F)F.[Ru+2].c1ccc2c(-c3nc4c5cccnc5c5ncccc5c4[nH]3)cccc2c1 | SK-MEL-28 | cell viability |  | normoxia, added: blue light 453 nm, 100 J/cm2 |  | EC50 | 2.43 ± 0.06 µM |
| O=C1C=CC(=O)c2ccccc21 | MOLT-3 | XTT |  |  | baseline: IC50 MRC-5 over IC50 MOLT-3 | selectivity index | 7.21 |
| COc1ccccc1-c1ccncc1C(=O)Nc1nnc(OCc2ccc(Cl)cc2)s1 | HCT116 BRCA2-/- |  |  | 0.5 µM, average of 3 runs | baseline: untreated | colony survival | 62.3% |
| Cc1cc(Nc2nc(C[C@@]3(C(=O)O)CCN(Cc4cccc(Cl)c4F)[C@H](C)C3)cc(C)c2F)[nH]n1 | SW948 | cell growth or viability, ATP luminescence |  | 5 days |  | IC50 | 0.103 µM |
| O=C(C[Se]C(=O)c1cc2ccccc2o1)Nc1cccc(C(F)(F)F)c1 | NCI60 prostate subpanel (PC-3, DU-145) | cytotoxicity, inhibitor |  | five-dose |  | CC50 | 6.39 µM |
| [Cl-].[Cl-].[Ru+2].c1ccc(-c2ccccn2)nc1.c1ccc(-c2ccccn2)nc1.c1ccc2cc3nc4c5cccnc5c5ncccc5c4nc3cc2c1 | SK-MEL-28 | cell viability |  | normoxia, added: blue light 453 nm, 100 J/cm2 |  | EC50 | 0.104 ± 0.001 µM |
| CC(C)Cc1ccc(C(C)C(=O)[Se]CC(=O)Nc2cccc(C(F)(F)F)c2)cc1 (stereo not drawn) | NCI60 renal subpanel | cytotoxicity, inhibitor |  | five-dose |  | CC50 | 8.04 µM |
| CC(C)C[C@H](NC(=O)[C@H](CC(=O)O)NC(=O)CNC(=O)[C@@H](N)CCCNC(=N)N)C(=O)N[C@@H](C)C(=O)N[C@H](C(=O)N[C@@H](CC(C)C)C(=O)N[C@@H](CCCNC(=N)N)C(=O)N[C@@H](CCC(N)=O)C(=O)N[C@@H](CC(C)C)C(=O)N[C@@H](C)C(=O)N[C@@H](CCC(N)=O)C(=O)N[C@@H](CCC(=O)O)C(=O)N[C@@H](CC(=O)O)C(=O)NCC(=O)N[C@H](C(=O)N[C@H](C(=O)NCC(=O)N[C@H](C(=O)N[C@@H](CCCNC(=N)N)C(=O)NCCOCCOCCOCCOCCOCCOCCOCCOCCOCCOCCOCCOCCC(=O)N[C@@H](CS)C(N)=O)C(C)C)C(C)C)C(C)C)[C@@H](C)O | T47D breast cancer | cell binding, phage binding, refers to: output/input phage |  | 10 min, 37 °C | baseline: control phage | selectivity ratio | 0.57 ± 0.038 |
| NC(=S)N/N=C/c1ccc(OCc2cccc(F)c2)cc1 | IMR-32 |  |  | 400 µg/mL, 24 h | higher = more activity | catalase activity (OD450) | 0.246 a.u. |
| CC(=O)NCSC[C@H](NC(=O)[C@@H]1CCCN1C(=O)[C@H](C)NC(=O)[C@@H](NC(=O)CNC(=O)[C@@H](NC(=O)[C@H](Cc1c[nH]c2ccccc12)NC(=O)[C@H](C)NC(=O)CNC(=O)[C@H](CO)NC(=O)[C@H](C)NC(=O)[C@@H]1CCCN1C(=O)[C@H](Cc1c[nH]c2ccccc12)NC(=O)[C@H](C)NC(=O)[C@H](C)NC(=O)[C@@H](N)Cc1ccc(O)cc1)[C@@H](C)O)[C@@H](C)O)C(=O)N[C@@H](CO)C(=O)N[C@@H](C)C(=O)NCC(=O)N[C@H](C(=O)NCCOCCOCCOCCOCCOCCOCCOCCOCCOCCOCCOCCOCCC(=O)N[C@@H](CS)C(N)=O)[C@@H](C)O | H322 | phage binding |  | 10 min, 37 °C | baseline: control phage | selectivity ratio | 10 ± 3.8 |
| CC(C)(C)C(=O)OCOP(=O)(OCOC(=O)C(C)(C)C)C1CCCN(O)C1=O (stereo not drawn) | OVCAR-8 |  |  |  |  | log GI50 | -6.52 log M |
| N[C@H](C(=O)N1CCCC1)C1CCN(c2nccc3c(-c4ncc(Cl)cc4Cl)cccc23)CC1 | human neutrophils | protein citrullination, inhibitor, flow cytometry, refers to: citrullinated histone H3 |  | 316 nM, added: ionomycin |  | inhibition | 31.1% and 33.6% and 36.1% and 24.9% |
| O=C(C[Se]C(=O)c1ccco1)Nc1cccc(C(F)(F)F)c1 | NCI60 breast subpanel mean | cell growth |  |  |  | TGI | 20.6 µM |
| C#CCN1C(=O)C(CC#C)(C(=O)OCC)Oc2ccccc21 (stereo not drawn) | HEK293T | cytotoxicity, CCK-8 |  | 1.56 µM, 72 h |  | inhibition | 0.06 ± 0.34% |
| O=C(C[Se]C(=O)c1cccs1)Nc1cccc(C(F)(F)F)c1 | NCI60 prostate subpanel (PC-3, DU-145) | cytotoxicity, inhibitor |  | five-dose |  | CC50 | 6.81 µM |
| O=C(O)c1ccc(-c2nc(-c3ccccc3Cl)c3sccn23)cc1 | human CD34+ hematopoietic stem cells | megakaryocyte differentiation, flow cytometry, refers to: CD61 |  | 10 µM, day 7, added: TPO | baseline: control | fold change | 1.09 fold and 1.16 fold and 1.08 fold and 1.14 fold and 1.05 fold and 1.11 fold and 1.07 fold |

A few entries again:
| SMILES | cell line | test | system | setting | how to read | measurement | value |
| --- | --- | --- | --- | --- | --- | --- | --- |
| CC(C)Cc1ccc(C(C)C(=O)[Se]CC(=O)Nc2cccc(C(F)(F)F)c2)cc1 (stereo not drawn) | NCI60 renal subpanel | cytotoxicity, inhibitor |  | five-dose |  | CC50 | 8.04 µM |
| O=C(C[Se]C(=O)c1ccccc1)Nc1cccc(C(F)(F)F)c1 | NCI60 renal subpanel | cell growth, inhibitor |  | five-dose |  | GI50 | 2.22 µM |
